Experimental data collected from several papers.
Each line is one published result; not all experiments were run side by side. pKi: −log10 of the molar value.
Target: Carbonic anhydrase 9 (CA9, Homo sapiens, UniProt Q16790)

SMILES = C[C@H]1OC(OC[C@@H]2OC(Oc3cc4oc(=O)ccc4cc3O)[C@@H](O)[C@H](O)[C@H]2O)[C@H](O)[C@@H](O)[C@@H]1O (some centres unmarked); read-out = enzyme activity; action = inhibitor; pKi = 6.90
SMILES = COc1ccc(/C(C)=N/NC(=O)CSc2nc3ccccc3c(=O)n2CCc2ccc(S(N)(=O)=O)cc2)cc1; read-out = enzyme activity; action = inhibitor; technique = stopped-flow; pKi = 7.36
SMILES = NS(=O)(=O)c1ccc(N/N=C2\C(=O)N(CC(=O)Nc3ccccc3Cl)c3ccccc32)cc1; read-out = enzyme activity; action = inhibitor; notes = with preincubation; pKi = 6.17
SMILES = CC(=O)Nc1ccc(S(=O)(=O)N2CCN(C(=O)c3cc4ccccc4oc3=O)CC2)cc1; read-out = enzyme activity; action = inhibitor; technique = stopped-flow; pKi = 5.17
SMILES = COCCOc1cc2ncnc(Nc3cccc(-c4cn(Cc5ccc(C(=O)Nc6cccc(S(N)(=O)=O)c6)cc5)nn4)c3)c2cc1OCCOC; read-out = enzyme activity; action = inhibitor; technique = stopped-flow; pKi = 6.25
SMILES = NS(=O)(=O)c1ccc(Nc2nc3nccc(-c4ccc5ccccc5c4)n3n2)cc1; read-out = enzyme activity; action = inhibitor; technique = stopped-flow; pKi = 7.24
SMILES = NS(=O)(=O)c1ccc(N/N=C2\C(=O)N(CC(=O)Nc3ccccc3Br)c3ccccc32)cc1; pKi = 6.40
SMILES = COCCOc1cc2ncnc(Nc3cccc(-c4cn(Cc5ccc(C(=O)NCCc6ccc(S(N)(=O)=O)cc6)cc5)nn4)c3)c2cc1OCCOC; read-out = enzyme activity; action = inhibitor; technique = stopped-flow; pKi = 6.37
SMILES = NS(=O)(=O)c1ccc(CCn2c(SCC(=O)N/N=C/c3ccccc3O)nc3ccccc3c2=O)cc1; read-out = enzyme activity; action = inhibitor; technique = stopped-flow; pKi = 7.83
SMILES = COCCOc1cc2ncnc(Nc3cccc(-c4cn(Cc5ccc(S(N)(=O)=O)cc5)nn4)c3)c2cc1OCCOC; read-out = enzyme activity; action = inhibitor; technique = stopped-flow; pKi = 7.70
SMILES = COc1ccc(NC(=O)CN2C(=O)/C(=N\Nc3ccc(S(N)(=O)=O)cc3)c3ccccc32)cc1; read-out = enzyme activity; action = inhibitor; notes = with preincubation; pKi = 6.22

Excerpt of the above:
SMILES = CC(=O)Nc1ccc(S(=O)(=O)N2CCN(C(=O)c3cc4ccccc4oc3=O)CC2)cc1; read-out = enzyme activity; action = inhibitor; technique = stopped-flow; pKi = 5.17
